Published values pooled from the literature.

SMILES | test | test system | setting | scale | measurement | value
C[C@H]1CN(C(=O)CC#N)[C@]12CCN(c1ncnc3[nH]ccc13)C2 |  | healthy human | oral, 12 mg single |  | subjects with Vomiting | 0%
OC[C@H]1O[C@@H](c2ccc(Cl)c(Cc3ccc(O[C@H]4CCOC4)cc3)c2)[C@H](O)[C@@H](O)[C@@H]1O |  | Japanese type 1 diabetes patients, blood | 2.5 mg, day 28 | baseline: baseline | change in haematocrit | 0.6%
N#C[C@@]1(c2ccc3c(N)ncnn23)O[C@H](CO)[C@@H](O)[C@H]1O |  | Sprague-Dawley rat, both sexes, bile | 80 mg/kg, time not given | baseline: dose | recovery in bile | 0.639%
C[C@@H]1[C@H](c2c(F)ccc(F)c2F)C[C@H](NC(=O)c2cnc3c(c2)C[C@@]2(C3)C(=O)Nc3ncccc32)C(=O)N1CC(F)(F)F |  | human, plasma and blood | oral, solution formulation, model | baseline: tablet | decrease in lag time | 19.1%
CC(C)n1c(Nc2cccnc2)nc2cnc(Nc3ccc(N4CCN(C)CC4)cc3)nc21 | refers to: nodal rhythm | healthy male subjects | oral, 100 mg, study, with: itraconazole |  | subjects with adverse event | 0%
CNC(=O)c1ccc(-c2cnc3ncc(Cc4ccc5ncccc5c4)n3n2)cc1F |  | cancer patients | oral, 600 mg twice daily, all grades RP2D expansion |  | ALT increased incidence | 13%
CC(C(=O)NCC(=O)NCC(CNC(=O)CNC(=O)C(C)N1CCN(CC(=O)[O-])CCN(CC(=O)[O-])CCN(CC(=O)[O-])CC1)(CNC(=O)CNC(=O)C(C)N1CCN(CC(=O)[O-])CCN(CC(=O)[O-])CCN(CC(=O)[O-])CC1)CNC(=O)CNC(=O)C(C)N1CCN(CC(=O)[O-])CCN(CC(=O)[O-])CCN(CC(=O)[O-])CC1)N1CCN(CC(=O)[O-])CCN(CC(=O)[O-])CCN(CC(=O)[O-])CC1.[Gd+3].[Gd+3].[Gd+3].[Gd+3] (centres unmarked) | ICP-MS | cynomolgus monkey | 58 days | baseline: dose | cumulative urinary excretion | 100%
O=C(O)C[C@H](O)C[C@H](O)/C=C/c1c(C2CC2)nc2ccccc2c1-c1ccc(F)cc1 |  | FVB wild-type mouse, plasma | oral, 5 mg/kg, geometric mean, with: silymarin 500 mg/kg oral |  | AUC(0-12h) | 0.0689 µM·h
C[C@@H](c1nc(-c2ccc(C#N)cc2)cs1)[C@](O)(Cn1cncn1)c1cc(F)ccc1F |  | healthy humans | oral, dose not given, with: ketoconazole |  | adverse event Nausea | 0%
CC(Sc1nc2ccccc2[nH]1)C(=O)Nc1ccc(S(N)(=O)=O)cc1 (centres unmarked) |  | octanol/buffer | pH 11, known kinase inactives set |  | logP | 1.59
CC(C)(C(=O)N1CCOc2c(C#N)cncc2C1)C(F)F | refers to: blood and lymphatic disorders | human, both sexes | oral, 15 mg twice daily, 14 days, multiple ascending dose |  | subjects with TEAE | 12.5%
O=S(=O)(O)Oc1cccc(O)c1O |  | human, cerebrospinal fluid | concentration not given, median |  | CSF concentration | 3.8 nM
Cn1c(C(F)(F)F)cc(=O)n(-c2cc(Oc3cccnc3OCC(=O)O)c(Cl)cc2F)c1=O |  | Crl:CD1(ICR) mice, female, plasma | oral diet, 25 ppm in diet, day 1, 90-day toxicity study |  | Cmax | 152 ng/mL
C[C@@H](Oc1ccc(S(C)(=O)=O)cc1C(=O)N1C[C@@H]2C[C@]2(c2cc(C(F)(F)F)on2)C1)C(F)(F)F |  | young humans, plasma | oral, 25 mg once daily, single dose, geometric mean |  | half-life | 59.3 h
O=S(=O)(c1ccc(-c2ccc3nccc(Nc4ccncn4)c3c2)cc1)N1CCOCC1 |  | female BALB/c mice, brain homogenate | intraperitoneal, 10 mg/kg, 1 h, mean |  | brain concentration | 22.4 ng/mL
COc1ccc(NC(=O)CCSc2nnc3scc(-c4ccc(C)cc4)n23)cc1 |  | octanol/buffer | pH 11, known kinase inactives set |  | logP | 3.6
CCn1ccc2c([C@](O)(c3ccc(C(F)(F)F)nc3)C3CC3)n(C)nc2c1=O |  | rat Sprague-Dawley male, blood | intravenous, 1 mg/kg |  | CLint,u | 114 mL/min/kg
Cc1cc(F)cc2c(CCC(=O)N[C@@H]3C(=O)NC[C@H]3O)c(-c3ccc(F)cc3)[nH]c12 |  | APOL1 G2 mouse model | 30 mg/kg twice daily, day 6 |  | AUC(0-12h) | 42900 ng·h/mL
C=CC(=O)Nc1cc(Nc2nccc(-c3cn(C)c4ccccc34)n2)c(OC)cc1N(C)CCN(C)C | storage stability | human plasma | 72 h, on ice, LLOQ level |  | recovery | 71.8%
C[C@H](Oc1ccc(Br)cc1-c1ccon1)C(=O)O |  | human, plasma | 600 mg once daily, day 10 | baseline: day 1 | accumulation ratio (Cmax) | 1.01

A few entries again:
SMILES | test | test system | setting | scale | measurement | value
C[C@@H](Oc1ccc(S(C)(=O)=O)cc1C(=O)N1C[C@@H]2C[C@]2(c2cc(C(F)(F)F)on2)C1)C(F)(F)F |  | young humans, plasma | oral, 25 mg once daily, single dose, geometric mean |  | half-life | 59.3 h
O=S(=O)(c1ccc(-c2ccc3nccc(Nc4ccncn4)c3c2)cc1)N1CCOCC1 |  | female BALB/c mice, brain homogenate | intraperitoneal, 10 mg/kg, 1 h, mean |  | brain concentration | 22.4 ng/mL
